Measurements of several laboratories.
Lines come from different studies, so protocols differ. Values joined by “and” are separate records of one study, mostly repeats; a detail may differ.

Structure (SMILES) | organism | assay | test system | setting | how to read | measurement | value
CC1(C)S[C@@H]2[C@H](NC(=O)[C@H](N)c3ccccc3)C(=O)N2[C@H]1C(=O)O | Pseudomonas aeruginosa | – | clinical isolate RKI-No_130/15 | – | – | MIC | > 16 µg/mL
COc1nc(N)ncc1-c1cn([C@@H]2O[C@](F)(COC(=O)C(C)C)[C@@H](OC(=O)C(C)C)[C@H]2OC(=O)C(C)C)cn1 | Dengue virus | viral replication | Huh-7, DENV-4 | 48 h | – | EC50 | 12 µM
CC(C)C[C@H](NC(=O)[C@H](Cc1cccc2ccccc12)NC(=O)OCc1ccccc1)C(=O)NC(/C=C/C=O)C[C@@H]1CCNC1=O (stereo partly drawn) | Norwalk virus | RT-qPCR, refers to: replicon RNA | HG23, GI-1 replicon | 96 h | – | EC90 | > 10 µM
COc1ncc(-c2cn([C@@H]3O[C@](F)(COC(=O)C(C)C)[C@@H](OC(=O)C(C)C)[C@H]3OC(=O)C(C)C)cn2)c(OC)n1 | Dengue virus | viral replication | Huh-7, DENV-2 | 48 h | – | EC50 | 16 µM
CC(C)n1ncc2c(C(=O)NCC3(C)CNC3)cc(C3CC3)nc21 | Enterovirus D68 | cytopathic effect | RD, US/MO/14-18949 | 5 nM | – | cell protection | 0.82% and 0.41% and 0.546%
COc1ncc(-c2cn([C@@H]3O[C@](F)(CO)[C@@H](O)[C@H]3O)cn2)cn1 | Dengue virus | viral replication | Huh-7, DENV-4 | 48 h | – | EC50 | > 100 µM
COC(=O)[C@H](Cc1c[nH]c2ccccc12)NCc1cc2ccccc2nc1OC | Pseudomonas aeruginosa | – | – | 16 µg/mL, together with: pentamidine 100 µM | relative to: control | growth | 65.9%
C[C@@H](O)[C@H]1C(=O)N2C(C(=O)O)=C(SCCN=CN)C[C@H]12 | Escherichia coli | – | 2904, female ICR mice, peritonitis, liver | dose not given, 168 h | – | bacterial load | 4.1 log CFU and 3.67 log CFU and 5.15 log CFU and 3.52 log CFU and 5.4 log CFU and 4.32 log CFU
Nc1nc(-c2ccccc2)nc2[nH]nc(Nc3ccc(C(F)(F)F)cc3)c12 | coxsackievirus B3 | – | 31-1-93, NMRI mice, CVB3 chronic myocarditis | oral, 100 mg/kg twice daily, day 26, dosed days 3 to 10, score scale 0 to 7 | direction not given | clinical score | 0.3

A few entries again:
Structure (SMILES) | organism | assay | test system | setting | how to read | measurement | value
COc1ncc(-c2cn([C@@H]3O[C@](F)(COC(=O)C(C)C)[C@@H](OC(=O)C(C)C)[C@H]3OC(=O)C(C)C)cn2)c(OC)n1 | Dengue virus | viral replication | Huh-7, DENV-2 | 48 h | – | EC50 | 16 µM
